Assay results pooled from the literature.
Parts stem from different laboratories: compare values within a part only. Several values in a cell are separate wells, animals, samples, runs or records.
UniProt P07949, sequence (whole entry, unmodified, looked up): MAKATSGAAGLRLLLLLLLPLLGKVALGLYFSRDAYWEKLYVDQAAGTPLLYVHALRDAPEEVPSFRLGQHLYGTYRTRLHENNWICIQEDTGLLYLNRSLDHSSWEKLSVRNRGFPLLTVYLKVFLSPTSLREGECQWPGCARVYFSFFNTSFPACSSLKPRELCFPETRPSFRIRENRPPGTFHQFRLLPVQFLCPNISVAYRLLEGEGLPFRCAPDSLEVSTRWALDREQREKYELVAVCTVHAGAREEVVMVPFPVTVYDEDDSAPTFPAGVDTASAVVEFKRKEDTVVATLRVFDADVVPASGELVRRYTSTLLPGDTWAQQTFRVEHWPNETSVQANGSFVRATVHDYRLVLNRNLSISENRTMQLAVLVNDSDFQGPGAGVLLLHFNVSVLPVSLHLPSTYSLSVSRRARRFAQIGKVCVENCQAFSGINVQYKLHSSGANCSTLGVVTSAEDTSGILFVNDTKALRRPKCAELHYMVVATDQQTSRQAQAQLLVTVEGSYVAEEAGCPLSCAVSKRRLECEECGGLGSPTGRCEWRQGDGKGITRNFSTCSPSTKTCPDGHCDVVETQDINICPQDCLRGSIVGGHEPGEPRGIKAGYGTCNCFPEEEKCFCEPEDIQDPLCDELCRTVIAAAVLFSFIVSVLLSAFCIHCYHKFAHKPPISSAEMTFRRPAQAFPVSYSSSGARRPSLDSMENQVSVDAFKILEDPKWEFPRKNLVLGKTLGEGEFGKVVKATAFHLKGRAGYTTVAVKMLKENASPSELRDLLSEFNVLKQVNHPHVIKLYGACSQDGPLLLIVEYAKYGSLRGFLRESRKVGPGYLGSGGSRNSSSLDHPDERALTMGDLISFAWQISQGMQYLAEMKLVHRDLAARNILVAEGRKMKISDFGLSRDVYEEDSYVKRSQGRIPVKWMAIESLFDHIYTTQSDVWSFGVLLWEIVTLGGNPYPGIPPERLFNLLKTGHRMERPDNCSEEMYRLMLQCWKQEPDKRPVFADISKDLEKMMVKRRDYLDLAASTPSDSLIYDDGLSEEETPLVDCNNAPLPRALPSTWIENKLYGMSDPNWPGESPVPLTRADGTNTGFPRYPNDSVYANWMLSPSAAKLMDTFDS
UniProt P10721, sequence (whole entry, unmodified, looked up): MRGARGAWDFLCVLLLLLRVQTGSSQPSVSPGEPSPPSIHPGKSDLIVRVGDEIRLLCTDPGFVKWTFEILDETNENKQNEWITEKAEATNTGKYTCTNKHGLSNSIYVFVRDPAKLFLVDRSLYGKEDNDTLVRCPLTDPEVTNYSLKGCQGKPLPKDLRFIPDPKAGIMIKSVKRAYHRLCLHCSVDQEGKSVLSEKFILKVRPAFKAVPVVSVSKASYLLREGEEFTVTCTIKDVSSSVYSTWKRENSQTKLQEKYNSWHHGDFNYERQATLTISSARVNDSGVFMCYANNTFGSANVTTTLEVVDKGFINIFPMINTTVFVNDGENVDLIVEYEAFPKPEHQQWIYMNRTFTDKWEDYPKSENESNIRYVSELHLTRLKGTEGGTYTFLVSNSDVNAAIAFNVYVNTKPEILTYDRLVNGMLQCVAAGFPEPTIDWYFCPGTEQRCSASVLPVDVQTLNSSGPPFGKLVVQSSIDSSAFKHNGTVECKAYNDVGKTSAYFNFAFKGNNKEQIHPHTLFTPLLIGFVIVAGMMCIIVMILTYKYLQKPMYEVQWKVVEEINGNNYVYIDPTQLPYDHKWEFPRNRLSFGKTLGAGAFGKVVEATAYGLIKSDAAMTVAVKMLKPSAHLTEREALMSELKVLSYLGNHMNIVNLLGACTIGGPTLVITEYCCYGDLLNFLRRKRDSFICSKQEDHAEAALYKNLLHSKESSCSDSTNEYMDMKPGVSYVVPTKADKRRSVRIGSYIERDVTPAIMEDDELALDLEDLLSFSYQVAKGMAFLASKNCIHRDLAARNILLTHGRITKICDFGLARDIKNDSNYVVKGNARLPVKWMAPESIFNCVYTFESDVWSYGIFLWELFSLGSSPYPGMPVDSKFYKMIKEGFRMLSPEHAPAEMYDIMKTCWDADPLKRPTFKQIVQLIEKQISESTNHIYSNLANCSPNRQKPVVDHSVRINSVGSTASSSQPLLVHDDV
UniProt P45983, sequence (whole entry, looked up): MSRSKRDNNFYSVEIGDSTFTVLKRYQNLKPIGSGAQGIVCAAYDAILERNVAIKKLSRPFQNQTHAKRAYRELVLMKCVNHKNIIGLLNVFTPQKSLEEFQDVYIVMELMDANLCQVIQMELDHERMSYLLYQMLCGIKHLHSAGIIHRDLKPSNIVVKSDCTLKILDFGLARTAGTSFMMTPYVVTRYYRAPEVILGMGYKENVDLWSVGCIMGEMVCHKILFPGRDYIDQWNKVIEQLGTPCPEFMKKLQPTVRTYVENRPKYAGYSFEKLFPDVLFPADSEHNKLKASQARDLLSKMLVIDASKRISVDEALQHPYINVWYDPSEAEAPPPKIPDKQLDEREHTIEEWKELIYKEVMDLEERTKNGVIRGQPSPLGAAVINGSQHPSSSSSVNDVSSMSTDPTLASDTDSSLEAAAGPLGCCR
UniProt P06239, sequence (whole entry, looked up): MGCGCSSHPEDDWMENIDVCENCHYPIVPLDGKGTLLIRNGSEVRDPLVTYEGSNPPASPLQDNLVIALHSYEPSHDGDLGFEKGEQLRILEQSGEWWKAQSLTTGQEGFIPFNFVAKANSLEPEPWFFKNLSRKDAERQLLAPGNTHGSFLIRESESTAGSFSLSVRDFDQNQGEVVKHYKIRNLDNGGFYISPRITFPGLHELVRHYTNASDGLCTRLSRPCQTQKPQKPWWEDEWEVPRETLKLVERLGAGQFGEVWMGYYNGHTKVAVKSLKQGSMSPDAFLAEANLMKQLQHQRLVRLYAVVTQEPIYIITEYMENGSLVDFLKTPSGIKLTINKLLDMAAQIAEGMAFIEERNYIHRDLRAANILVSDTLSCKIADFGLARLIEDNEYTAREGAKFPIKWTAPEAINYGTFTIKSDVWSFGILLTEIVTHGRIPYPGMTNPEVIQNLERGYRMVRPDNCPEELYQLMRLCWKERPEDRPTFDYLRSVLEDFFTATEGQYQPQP
UniProt O96013, sequence (whole entry, looked up): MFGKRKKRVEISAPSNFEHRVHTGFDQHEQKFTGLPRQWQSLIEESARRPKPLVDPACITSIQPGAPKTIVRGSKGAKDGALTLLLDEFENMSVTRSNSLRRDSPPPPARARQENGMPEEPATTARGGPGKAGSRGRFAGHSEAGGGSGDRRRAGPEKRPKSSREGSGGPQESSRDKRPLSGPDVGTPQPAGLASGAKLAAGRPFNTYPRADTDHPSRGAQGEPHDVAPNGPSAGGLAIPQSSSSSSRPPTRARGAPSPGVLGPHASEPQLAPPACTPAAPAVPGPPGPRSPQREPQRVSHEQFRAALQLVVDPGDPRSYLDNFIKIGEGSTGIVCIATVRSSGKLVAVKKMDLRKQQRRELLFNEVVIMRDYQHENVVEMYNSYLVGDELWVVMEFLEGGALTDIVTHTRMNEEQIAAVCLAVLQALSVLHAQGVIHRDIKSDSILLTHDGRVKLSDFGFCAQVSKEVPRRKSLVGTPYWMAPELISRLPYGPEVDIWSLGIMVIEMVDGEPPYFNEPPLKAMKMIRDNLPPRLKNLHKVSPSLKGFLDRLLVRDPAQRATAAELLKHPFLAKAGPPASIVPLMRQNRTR
UniProt Q13523, sequence (whole entry, looked up): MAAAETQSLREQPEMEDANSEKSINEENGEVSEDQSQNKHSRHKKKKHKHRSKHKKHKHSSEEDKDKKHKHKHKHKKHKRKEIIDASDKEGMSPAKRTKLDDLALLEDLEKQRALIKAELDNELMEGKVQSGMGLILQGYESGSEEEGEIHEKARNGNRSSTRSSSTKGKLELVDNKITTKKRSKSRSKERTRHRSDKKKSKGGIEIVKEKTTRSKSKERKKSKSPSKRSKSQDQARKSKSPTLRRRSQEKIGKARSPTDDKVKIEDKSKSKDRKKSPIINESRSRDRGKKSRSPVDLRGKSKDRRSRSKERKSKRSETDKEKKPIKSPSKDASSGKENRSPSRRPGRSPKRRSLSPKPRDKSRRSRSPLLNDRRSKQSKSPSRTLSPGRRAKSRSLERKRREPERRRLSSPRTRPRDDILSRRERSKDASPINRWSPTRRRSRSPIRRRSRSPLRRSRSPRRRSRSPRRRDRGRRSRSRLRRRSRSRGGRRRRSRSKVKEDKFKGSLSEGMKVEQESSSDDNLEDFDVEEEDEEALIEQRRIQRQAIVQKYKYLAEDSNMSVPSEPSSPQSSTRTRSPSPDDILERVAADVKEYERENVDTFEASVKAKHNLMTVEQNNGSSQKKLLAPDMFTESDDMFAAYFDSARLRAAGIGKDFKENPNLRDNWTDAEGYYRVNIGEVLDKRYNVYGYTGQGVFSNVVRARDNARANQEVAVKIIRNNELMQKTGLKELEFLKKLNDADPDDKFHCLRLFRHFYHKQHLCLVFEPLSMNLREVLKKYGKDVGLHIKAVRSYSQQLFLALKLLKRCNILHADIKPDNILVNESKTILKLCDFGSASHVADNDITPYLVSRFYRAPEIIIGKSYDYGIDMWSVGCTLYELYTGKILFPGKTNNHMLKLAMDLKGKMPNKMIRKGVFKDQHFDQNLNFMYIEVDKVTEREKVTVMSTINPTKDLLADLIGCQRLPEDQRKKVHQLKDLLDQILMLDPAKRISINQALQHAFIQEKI
UniProt O94768, sequence (whole entry, looked up): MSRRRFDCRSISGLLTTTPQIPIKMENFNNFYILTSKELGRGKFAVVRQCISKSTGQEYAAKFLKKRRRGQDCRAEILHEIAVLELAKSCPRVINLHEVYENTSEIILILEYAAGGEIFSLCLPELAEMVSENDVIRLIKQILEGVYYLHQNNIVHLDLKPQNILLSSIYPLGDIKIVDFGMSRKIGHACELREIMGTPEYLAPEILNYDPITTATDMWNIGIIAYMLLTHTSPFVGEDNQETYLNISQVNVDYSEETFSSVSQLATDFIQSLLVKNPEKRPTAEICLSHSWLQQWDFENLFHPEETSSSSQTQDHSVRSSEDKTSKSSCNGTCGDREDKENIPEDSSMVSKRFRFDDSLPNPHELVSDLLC

Series 1 — cell line: mouse MPNST tumor cells; method: high-content nuclear imaging; refers to: cell number; concentration: 10 µM; time: 12 h; setting: mean of 2 replicates; baseline: plate mean; reading: higher = more cells
Compound | nuclei count
CCn1c(=O)n(C2=C(CO)CN(CC3CCCCCCC3)CC2)c2ccccc21 | 0.41 z-score
Cc1cnc(-c2cnc(NCCNc3ccc(C#N)cn3)nc2-c2ccc(Cl)cc2Cl)[nH]1 | -0.467 z-score
OCC(O)CN1CCN(c2ccccc2)CC1 (racemic) | 1.83 z-score
O=C(c1ccc(F)cc1)C1CCN(CCn2c(=O)[nH]c3ccccc3c2=O)CC1 | 2.07 z-score
COc1ccc(C(=O)NCc2ccc(OCCN(C)C)cc2)cc1OC | 0.721 z-score
CC(C)(C)NC[C@H](O)COc1cccc2c1CCCC2=O | 2.81 z-score
CCCc1cc(=O)[nH]c(=S)[nH]1 | 0.223 z-score and 1.02 z-score
CC(C)(N)c1cc(C(=O)N[C@@H]2CCc3ccc(Oc4ccnc5c4CCC(=O)N5)cc3C2)cc(C(F)(F)F)c1 | 2.18 z-score
CCOc1ccc(-n2c(C(C)N(Cc3cccnc3)C(=O)Cc3ccc(F)c(C(F)(F)F)c3)nc3ncccc3c2=O)cc1 (stereo not drawn) | 1.66 z-score

Series 2 — concentration: 1 µM
Structure (SMILES): CO[C@@H](C)c1c(Nc2ccc([C@H](N(C)C(=O)C3CCS(=O)(=O)CC3)C(F)(F)F)cc2)cnc2cc(Cl)nn12
target | effect on | method | remaining binding [%]
Cyclin-dependent kinase 19 (CDK19, Homo sapiens, UniProt Q9BWU1) |  | competition binding | 73
Tyrosine-protein kinase SYK (SYK, Homo sapiens, UniProt P43405) | cell-free assay | competition with immobilised ligand | 82
Megakaryocyte-associated tyrosine-protein kinase (MATK, Homo sapiens, UniProt P42679) | cell-free assay | competition with immobilised ligand | 99
Atypical kinase COQ8A, mitochondrial (COQ8A, Homo sapiens, UniProt Q8NI60) | cell-free assay | competition with immobilised ligand | 100
Serine/threonine-protein kinase PAK 4 (PAK4, Homo sapiens, UniProt O96013) | cell-free assay | competition with immobilised ligand | 95
ALK tyrosine kinase receptor (ALK, Homo sapiens, UniProt Q9UM73) | cell-free assay | competition with immobilised ligand | 100
Tyrosine-protein kinase Lck (LCK, Homo sapiens, UniProt P06239) | cell-free assay | competition with immobilised ligand | 83
Proto-oncogene tyrosine-protein kinase receptor Ret (RET, Homo sapiens, UniProt P07949, M918T) | cell-free assay | competition with immobilised ligand | 95
Dual specificity mitogen-activated protein kinase kinase 7 (MAP2K7, Homo sapiens, UniProt O14733) | cell-free assay | competition with immobilised ligand | 100
Mast/stem cell growth factor receptor Kit (KIT, Homo sapiens, UniProt P10721, A829P) | cell-free assay | competition with immobilised ligand | 100
Serine/threonine-protein kinase WNK2 (WNK2, Homo sapiens, UniProt Q9Y3S1) | cell-free assay | competition with immobilised ligand | 98
Serine/threonine-protein kinase 17B (STK17B, Homo sapiens, UniProt O94768) | cell-free assay | competition with immobilised ligand | 99
Serine/threonine-protein kinase PRP4 homolog (PRPF4B, Homo sapiens, UniProt Q13523) | cell-free assay | competition with immobilised ligand | 100
Mitogen-activated protein kinase 8 (MAPK8, Homo sapiens, UniProt P45983) | cell-free assay | competition with immobilised ligand | 86

Series 3 — host: human; matrix: microsomes or S9; concentration: 2 µM; time: 0.5 h
SMILES | remaining compound [%]
CCC(=O)c1ccc(OCCCn2cnc3ccccc32)cc1 | 39.3
CSc1ncc(Br)c(OC(C)C)n1 | 7.91
Cn1cncc1-c1cccc(-c2cn3cccc(C#N)c3n2)c1 | 85.8
Cc1noc(-c2cccn2Cc2ccc(F)cc2Cl)n1 | 60.6
CC(C)(C)NC(=O)CN1CCN(c2cc(C(=O)O)c3cc(NS(=O)(=O)c4ccc(F)cc4)ccc3n2)CC1 | > 99
CC(C)N1/C(=C/C2=Cc3ccccc3OC2)C(=O)c2ccccc2S1(=O)=O | 3.15

Series 4 — organism: Sarcocystis neurona; effect on: parasite growth; concentration: 10 µM; time: 96 h; setting: first screen; baseline: untreated
SMILES | log2 fold change
NS(=O)(=O)c1cc2c(cc1C(F)(F)F)NCNS2(=O)=O | 0.18
Fc1ccc([C@@H]2CCNC[C@H]2COc2ccc3c(c2)OCO3)cc1 | -0.19
CC1Cc2ccccc2N1NC(=O)c1ccc(Cl)c(S(N)(=O)=O)c1 (stereo not drawn) | 0.25
CC#C[C@]1(O)CC[C@H]2[C@@H]3CCC4=CC(=O)CCC4=C3[C@@H](c3ccc(N(C)C)cc3)C[C@@]21C | -0.12
CC[C@]1(O)C[C@@H]2CN(CCc3c([nH]c4ccccc34)[C@@](C(=O)OC)(c3cc4c(cc3OC)N(C)[C@H]3[C@@](O)(C(N)=O)[C@H](O)[C@]5(CC)C=CCN6CC[C@]43[C@@H]65)C2)C1 | -0.36
CO/N=C(\C(=O)N[C@@H]1C(=O)N2C(C(=O)O)=C(COC(C)=O)CS[C@H]12)c1csc(N)n1 | 0.26
COc1ccc(C2CNC(=O)C2)cc1OC1CCCC1 (stereo not drawn) | -0.02

Repeated from above (series 2):
target | effect on | method | remaining binding [%]
Mast/stem cell growth factor receptor Kit (KIT, Homo sapiens, UniProt P10721, A829P) | cell-free assay | competition with immobilised ligand | 100
Serine/threonine-protein kinase WNK2 (WNK2, Homo sapiens, UniProt Q9Y3S1) | cell-free assay | competition with immobilised ligand | 98
ALK tyrosine kinase receptor (ALK, Homo sapiens, UniProt Q9UM73) | cell-free assay | competition with immobilised ligand | 100
